Published values of several laboratories.
Parts stem from different laboratories: compare values within a part only. Positions count from the first letter of the parent shown.

Block 1 — technique: DHFR PCA, deep sequencing; sample: yeast; added: (+)-ABA 0.39 µM; baseline: wild-type fitted maximum; direction: higher = stronger binding
Target: ABI1, truncated, D143A, DHFR fusion (Arabidopsis thaliana)
Setting: methotrexate growth selection, single substitutions
Starting sequence: PYL1, truncated, DHFR fusion (Arabidopsis thaliana); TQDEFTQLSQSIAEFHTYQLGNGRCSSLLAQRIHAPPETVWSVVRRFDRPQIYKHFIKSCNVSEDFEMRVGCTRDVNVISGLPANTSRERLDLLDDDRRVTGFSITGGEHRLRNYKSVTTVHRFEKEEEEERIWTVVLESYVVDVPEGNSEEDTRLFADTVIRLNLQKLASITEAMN; partner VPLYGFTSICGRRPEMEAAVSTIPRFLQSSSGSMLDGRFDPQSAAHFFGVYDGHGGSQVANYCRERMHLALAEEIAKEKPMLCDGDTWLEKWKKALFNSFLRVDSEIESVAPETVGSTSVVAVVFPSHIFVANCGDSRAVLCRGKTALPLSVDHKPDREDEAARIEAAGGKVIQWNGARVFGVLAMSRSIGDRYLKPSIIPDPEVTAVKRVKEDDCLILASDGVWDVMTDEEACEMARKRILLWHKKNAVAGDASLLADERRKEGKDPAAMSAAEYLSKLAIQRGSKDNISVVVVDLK
Substitution | relative binding score [%]
I12A | -2.3
T119M | 10.2
E128D | 65.4
F124Q | 9.96
R155K | 53.5
T17Y | 0.674
V43A | 4.63
R111H | 13.3
Y115C | 9.68
R49V | 3.33
V76A | 1.51

Block 2 — technique: protein-binding microarray; form: double-stranded DNA, one strand shown; sample: in vitro; concentration: not given; direction: higher = stronger binding
Target: Max-binding protein MNT, bHLH-zipper, MAX partner unstated (MNT, Homo sapiens, UniProt Q99583, residues 220-300)
Setting: k-mer, scored over probes, only values ≥0.25
Target sequence (chain): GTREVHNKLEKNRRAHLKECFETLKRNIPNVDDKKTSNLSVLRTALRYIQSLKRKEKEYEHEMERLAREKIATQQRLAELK
Oligonucleotide | E-score
GCGTGGTA | 0.442
CCATGTGA | 0.469
CCCCAAGC | 0.29
CCACGTGC | 0.497
AGCTCGTG | 0.322
CCGCCCCA | 0.357
CGAGCACG | 0.353
GTGGGACA | 0.396
CATGTGCA | 0.474
GACCCGCC | 0.294
ACGCTCGC | 0.253
GACCCCAC | 0.294
ACATGTCT | 0.26

Block 3 — technique: RNA Bind-n-Seq; form: RNA; sample: in vitro; concentration: 1 µM; setting: whole 134-nt RNA, ends assumed; added: 150 mM KCl; baseline: input library; direction: higher = stronger binding
Target: Ras GTPase-activating protein-binding protein 1, C-terminal RGG region (G3BP1, Homo sapiens, UniProt Q13283)
Sequence of UniProt Q13283 (whole entry, looked up): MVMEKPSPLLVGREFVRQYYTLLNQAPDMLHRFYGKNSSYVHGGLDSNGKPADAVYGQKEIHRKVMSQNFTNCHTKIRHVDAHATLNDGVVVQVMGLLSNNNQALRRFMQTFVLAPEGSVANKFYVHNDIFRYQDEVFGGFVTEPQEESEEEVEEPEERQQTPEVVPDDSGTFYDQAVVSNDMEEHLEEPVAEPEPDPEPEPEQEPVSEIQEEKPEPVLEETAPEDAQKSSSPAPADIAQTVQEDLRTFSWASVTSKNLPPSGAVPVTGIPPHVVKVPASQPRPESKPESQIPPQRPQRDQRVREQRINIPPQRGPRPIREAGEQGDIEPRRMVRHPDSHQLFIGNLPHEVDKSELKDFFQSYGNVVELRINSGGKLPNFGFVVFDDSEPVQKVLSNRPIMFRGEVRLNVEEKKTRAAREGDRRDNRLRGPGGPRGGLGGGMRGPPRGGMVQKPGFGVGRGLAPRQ
Oligonucleotide | log2 enrichment
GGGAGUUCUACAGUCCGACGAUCCCUCAAGUCCUGUGCUACACAUCGUAUGUACCGAAUCGGGUGGUGGGGUGGGGAAAGUAUUAUGUUACGCCGUUCGGAUCUGCACUUCCAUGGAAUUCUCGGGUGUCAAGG | 0.501
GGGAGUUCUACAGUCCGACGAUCAGUCCUGUGCUACACAUCGUAUGUACCGAAUCGGGGAAAGGGGAAAGGGGAAAGGGGAAAGUAUUAUGUUACGCCGUUCGGAUCUGCACUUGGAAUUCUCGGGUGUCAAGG | 4.04
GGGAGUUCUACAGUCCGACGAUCCACAGACGACACGCACCCACACAGACACAGAGGGAAGGGGUUGGGAUGGGGACAGGGUGCACAGCAGGGCGGGGUAGGACCCCAGCCCCUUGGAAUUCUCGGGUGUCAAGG | -0.359
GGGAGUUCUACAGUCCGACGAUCAGUCCUGUGCUACACAUCGUAUGUACCGAAUCGGAAAAAAGGAAAAAAGGAAAAAAGGAAAGUAUUAUGUUACGCCGUUCGGAUCUGCACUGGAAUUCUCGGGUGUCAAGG | -2.03
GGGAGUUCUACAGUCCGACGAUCUCCUGUGCUACACAUCGUAUGUACCGAAUCGGGGAAAAAAAGGGGUUUUUGGGGUGGGGAAAGUAUUAUGUUACGCCGUUCGGAUCUGCAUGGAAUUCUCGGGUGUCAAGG | 1.39
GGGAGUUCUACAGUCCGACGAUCACCAUGCAGGUGGGCAUCUUUGGGAAGUGGGGCAAGGGGGGCAUAGGGAGGGGGGUAACACUUUGGGAACAGGUGGUCCCAGGUCGUUUCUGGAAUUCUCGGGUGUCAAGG | 2.14
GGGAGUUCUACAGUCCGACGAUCAAGUCCUGUGCUACACAUCGUAUGUACCGAAUCGGUUUUGGGUUUUGGUUUUGGGGAAAGUAUUAUGUUACGCCGUUCGGAUCUGCACUUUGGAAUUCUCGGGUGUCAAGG | -1.5
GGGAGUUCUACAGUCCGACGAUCUCAAGUCCUGUGCUACACAUCGUAUGUACCGAAUCGGGGAAGGGGAAGGGAAGGAAAGUAUUAUGUUACGCCGUUCGGAUCUGCACUUCCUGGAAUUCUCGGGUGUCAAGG | -0.847

Block 4 — technique: aptamer microarray, sandwich; form: DNA with 2'F-ANA; sample: in vitro; concentration: 200 nM; added: Cy3 exosite-II aptamer, 400 nM; direction: higher = stronger binding; oligonucleotide: GGTTGGTGTGGTTGG
Target: Prothrombin, mature alpha-thrombin (F2, Homo sapiens, UniProt P00734)
Setting: whole 15-mer aptamer, many near background
Modification | mean fluorescence intensity [a.u.]
2'F-ANA at 1 4 6 9 10 15 | 52.6
2'F-ANA at 1 4 6 13 | 72.6
2'F-ANA at 3 6 8 9 10 11 14 15 | 333
2'F-ANA at 1 4 6 10 11 12 14 | 48.6
2'F-ANA at 1 2 5 7 8 9 12 13 | 77.6
2'F-ANA at 1 3 4 6 8 9 13 14 | 118
2'F-ANA at 1 2 5 8 9 12 15 | 114
2'F-ANA at 2 3 5 7 8 10 15 | 52.2
2'F-ANA at 4 6 7 10 12 14 | 59.8
2'F-ANA at 2 4 5 6 8 9 10 11 12 13 14 15 | 47.1
2'F-ANA at 4 5 10 11 12 15 | 49.4
2'F-ANA at 2 4 5 6 7 12 15 | 184
2'F-ANA at 2 5 7 8 11 12 15 | 123
2'F-ANA at 2 3 4 6 11 12 13 14 15 | 214
2'F-ANA at 2 9 10 11 12 15 | 144
2'F-ANA at 2 3 4 5 6 8 14 15 | 55.8
2'F-ANA at 1 2 3 5 6 7 9 11 13 14 | 191
2'F-ANA at 1 4 5 7 8 10 11 12 14 | 224
2'F-ANA at 2 4 5 6 7 15 | 62.3
2'F-ANA at 4 5 6 10 11 12 13 14 | 46.8
2'F-ANA at 1 3 5 11 15 | 57.5
2'F-ANA at 2 4 5 6 7 8 9 10 14 15 | 132
2'F-ANA at 3 4 6 9 12 | 886
2'F-ANA at 4 8 9 10 11 12 14 15 | 86.9
2'F-ANA at 1 2 3 8 10 14 | 51.5

Block 5 — technique: protein-binding microarray; form: double-stranded DNA, one strand shown; sample: in vitro; concentration: 940 nM top; setting: 60-bp whole probe; added: salmon DNA 0.4 mg/ml; baseline: random background probes; direction: higher = stronger binding; shared flanks, not repeated: GCCTAGCAC … GTCTTGATTCGCTTGACGCTGCTG
Target: Interferon regulatory factor 5, full length, phosphomimetic (IRF5, Homo sapiens, UniProt Q13568-2, residues 1-514, S451D/S453D/S456D/S462D)
Oligonucleotide | fitted relative affinity
TTAGAACTCAGACTGGATTAGTGCTAG | -0.493 z-score
TTAGGTTTCCTACTGCTTAAGTGCTAG | 1.22 z-score
TTAGGTTACGGTTTCGGTTAGTGCTAG | 7.36 z-score
TTAGGACTGGGTATCAGTTAGTGCTAG | 0.384 z-score
TCAATTTTCATTTTGTGACTGTGCTAG | 0.82 z-score
TTAGATATCAGAATGGATTAGTGCTAG | -0.287 z-score
TTAGATTTCGGGTTTCGATAAGTGCTA | 5.24 z-score
TTAGGTTTCTGGTTTCGGTTAGTGCTA | 9.19 z-score
GACGGACTGGGGTTCCGGGACGTGCTA | -0.395 z-score
GACGGTCTCATTCTCCTGACGTGCTAG | 1.87 z-score
GACGATATCGGGGCTGGAGACGTGCTA | -0.185 z-score
TCACCCATGAGTCTCAAACTGTGCTAG | 0.268 z-score
GACGGACTGGACTATGGGGACGTGCTA | -0.248 z-score
GACGGTTTCCATTCCCTGACGTGCTAG | 2.11 z-score
TTAGGTCTCCTTTTCGTTTAGTGCTAG | 0.916 z-score
CTGTTTCTACTGTCTGTTTCCGTGCTA | 1.92 z-score
TTATATCTCAGACTGGATTAGTGCTAG | 0.406 z-score
TCAAAGATTTTTATCAAACTGTGCTAG | 0.0269 z-score
TTCTCTAACCTCTCTAATAAAGTGCTA | 1.29 z-score
GACGATATCGGGACTGGACACGTGCTA | -0.0392 z-score
GATGATTTCGGGACTGGAGACGTGCTA | 0.14 z-score
TTAGGTATCGTTATCGGTTAGTGCTAG | 5.73 z-score
CTTGCTCTTGTTTTCACAGGGTGCTAG | 0.951 z-score
TCAGATCTCCGAGATGCCACTGTGCTA | -0.192 z-score

Block 6 — target: CCNB3, cyclin fold, Cln2 fusion (human); technique: yeast growth competition, sequencing; sample: yeast; setting: strong parent motif; baseline: not given; direction: higher = stronger binding
Starting sequence: PKN2 docking peptide (human); VSAVRKLDFSDTM
Substitution | normalised enrichment score
T12D | 1.14
F9P | -0.181
S2R | 1.81
A3M | 0.424
V4Q | 0.579
L7G | -0.234
S2P | 1.14
K6P | -0.085
S2T | 1.63
D11V | 2.08
K6F | 0.584
F9C | 0.00866
R5C | 0.409
L7S | 0.41
D11W | 0.665
K6L | 0.633
V4I | 1.15
S2A | 1.19
K6C | 0.591
V4K | 2.29
S10K | 0.681
L7E | -0.396
T12F | 1.77
A3F | 0.798
D8R | 0.465

Excerpt of the above (block 6):
Substitution | normalised enrichment score
S2T | 1.63
D11V | 2.08
K6F | 0.584
F9C | 0.00866
R5C | 0.409
L7S | 0.41
D11W | 0.665
K6L | 0.633
